Assay results of several laboratories.
Lines come from different studies, so protocols differ. Several values in a cell are separate wells, animals, samples, runs or records. ± marks the error that the study gave. Converted amounts (≈) assume the structure as drawn.
Organism: Mycobacterium tuberculosis

NC(=O)c1cc(C(F)F)ccc1OCCc1cccc(F)c1 — IC90 (growth; H37Rv-LP; 120 h): 12000 ± 4900 nM
Cc1ccn2c(-c3csc(Nc4ccccn4)n3)c(C)nc2c1 — MIC50 (microbial growth): 7.03 mM (≈ 2260 µg/mL)
Cc1ccccc1/C=C/C(=O)N[C@H]1COC(=O)[C@H](CC(=O)O)NC(=O)[C@H]([C@@H](O)C(=O)c2ccccc2N)NC(=O)[C@@H](Cc2ccccc2)NC(=O)[C@@H](NC(=O)[C@@H](Cc2ccccc2)NC(=O)CN)[C@@H](C)OC1=O — MIC50 (mc2 6230; 5 days, 37 °C): inactive
CCc1ccc(C2CC(C(F)(F)F)n3ncc(C(=O)NCc4ccc(OC)cc4)c3N2)cc1 (stereo not shown) — IC50 (bacterial growth, inhibitor; mmpL3-TetON): 0.14 µM
Cc1ccn2c(C(=O)NCc3ccccc3)c(C)nc2c1 — MIC90 (microbial growth; H37RV): 2.5 µM (≈ 0.698 µg/mL)
CCC(CO)NCCNC(CC)CO.CCOc1cc(C=NNC(=O)c2ccncc2)ccc1OC(=O)CN1C(=O)CSC1=O — FICI (two-drug checkerboard; H37Rv; concentration not given, unit not given; lower means more synergy): 2
COc1ccc2ncc(F)c(C[C@H](O)[C@H]3OC[C@H](NCc4ccc5c(n4)NC(=O)CO5)CO3)c2c1 — lung bacterial burden reduction (H37Rv, mouse, IFN-gamma knockout; intraperitoneal, 150 mg/kg twice daily, 10 days; relative to: untreated): ~3 log10
NC(=O)c1cc(-c2ccsc2)ccc1OCCc1cc(F)cc(F)c1 — IC90 (growth; H37Rv-LP; 120 h): 130 ± 30 nM
CCc1nc2cc(C(F)(F)F)ccn2c1C(=O)NCc1ccc2oc(-c3ccc(OC(F)(F)F)cc3)nc2c1 — MIC90 (microbial growth; H37RV): > 25 µM
O=C(CN1C(=O)CSC1=O)Oc1ccc(/C=N/NC(=O)c2ccncc2)cc1 — MIC (microbial growth, resazurin; H37RV): 0.078 µM
NC(=O)c1cc(-c2ccoc2)ccc1OCCc1cccc(F)c1 — selectivity index (H37Rv-LP; relative to: HepG2 CC50 over Mtb IC90): 98
C#CCN(Cc1ccc2[nH]c(C)nc(=O)c2c1)c1ccc(C(=O)N[C@@H](CCC(=O)O)C(=O)O)cc1 — MIC90 (bacterial growth, inhibitor; H37Rv wild type): > 100 µM
NC(=O)c1cc(-c2ccco2)ccc1OCCc1cccc(F)c1 — IC90 (growth; H37Rv-LP; 120 h): 580 ± 340 nM
COc1cc(C=NNC(=O)c2ccncc2)ccc1OC(=O)CN1C(=O)CSC1=O.NNC(=O)c1ccncc1 — FICI (two-drug checkerboard; H37Rv; concentration not given, unit not given; lower means more synergy): 2
COc1ccc(-c2ccc(Nc3cccc(S(=O)(=O)CCNCCc4cccs4)c3)nc2)cn1 — IC50 (bacterial growth, inhibitor; mmpL3-TetON): 14.5 µM
Cc1nc2cc(OC(F)(F)F)ccn2c1C(=O)NCc1ccc2oc(-c3ccc(Cl)cc3)nc2c1 — MIC90 (microbial growth; H37RV): > 10 µM
CCc1ccc(CN2CCC3(CC2)OCCc2sccc23)s1 — IC50 (bacterial growth, inhibitor; mmpL3-TetON): 0.94 µM
COc1ccc(-c2ccc(OCCc3cccc(F)c3)c(C(N)=O)c2)cn1 — IC90 (growth; H37Rv-LP; 120 h): > 100000 nM
O=C(CN1C(=O)CSC1=O)Oc1ccc(/C=N/NC(=S)Nc2cccc(Cl)c2)cc1Cl — MIC (Alamar blue; 192): 32.2 µM
Cc1nc2ccc(C(F)(F)F)cn2c1C(=O)NCc1ccc2oc(-c3ccc(Cl)cc3)nc2c1 — MIC90 (microbial growth; H37RV): > 10 µM
Clc1ccc(Nc2nc(-c3ccccn3)cs2)nc1 — IC50 (bacterial growth, inhibitor; mmpL3-TetON): 0.99 µM
COc1ccc2nccc(CC[C@H]3OC[C@H](NC(=O)c4ccc5c(n4)NC(=O)CS5)CO3)c2c1 — MIC (microbial growth; H37RV): ≤ 1 µg/mL
Cc1nc2cc(C(F)(F)F)ccn2c1C(=O)NCc1ccc2oc(-c3ccc(Cl)cc3)nc2c1 — MIC90 (microbial growth; H37RV): 0.156 µM (≈ 0.0756 µg/mL)
COc1ccc(-c2nc(-c3cccc(NC(=O)Cc4ccc(F)cc4)c3)no2)cc1OC — IC50 (bacterial growth, inhibitor; mmpL3-TetON): 0.18 µM
Cc1cc(Oc2nc(N3CC[C@@H](c4ccncc4)C3)ncc2F)[nH]n1 — normalised growth (OD; H37Rv PurF CRISPRi knockdown; 0.125 µM, added: anhydrotetracycline low): 2% and 3% and 1%
CCOc1cc(C=NNC(=O)c2cccnc2)ccc1OC(=O)CN1C(=O)CSC1=O.NNC(=O)c1ccncc1 — FICI (two-drug checkerboard; H37Rv; concentration not given, unit not given; lower means more synergy): 2
Cc1c(-c2ccc(N3CCCCC3)cc2)[nH]c2cc(F)cc(F)c2c1=O — IC90 (microbial growth; H37RV): 850 nM
Cc1c(CN2CCN(C)CC2)cc(-c2ccc(Cl)cc2)n1-c1ccc(Cl)cc1 — IC50 (microbial growth): 7.88 µM
CCc1nc2ccc(C(F)(F)F)cn2c1C(=O)NCc1ccc2oc(-c3ccc(Cl)cc3)nc2c1 — MIC90 (microbial growth; H37RV): > 10 µM
Cc1ccc2nc(C(F)(F)F)c(C(=O)NCc3ccc4c(c3)OCO4)n2c1 — IC50 (microbial growth): 3.92 µM
Cc1nc(=O)c2cc(CN(C)c3ccc(C(=O)NCc4ccccn4)s3)ccc2[nH]1 — MIC90 (bacterial growth, inhibitor; H37Rv wild type): > 100 µM
Cc1nc2cc(C(F)(F)F)ccn2c1C(=O)NCc1ccc2oc(-c3ccc(OC(F)(F)F)cc3)nc2c1 — MIC90 (microbial growth; H37RV): > 25 µM
CN1CCN(c2ccc(C(F)(F)F)cc2NC(=O)c2ccccn2)CC1 — IC50 (microbial growth): 34.1 µM
NC(=O)c1cc(-c2cncnc2)ccc1OCCc1cccc(F)c1 — IC90 (growth; H37Rv-LP; 120 h): > 100000 nM
CCC(CO)NCCNC(CC)CO.CCOc1cc(C=NNC(=S)Nc2cccc(Cl)c2)ccc1OC(=O)CN1C(=O)CSC1=O — FICI (two-drug checkerboard; H37Rv; concentration not given, unit not given; lower means more synergy): 2
Cc1nc2cc(Br)ccn2c1C(=O)NCc1ccc2oc(-c3ccc(OC(F)(F)F)cc3)nc2c1 — MIC90 (microbial growth; H37RV): > 10 µM
CCCc1ccc(-c2cccc(-c3nc4ccc5cc(C(=O)O)cc(O)c5c4[nH]3)c2)cc1 — IC50 (resazurin; wild type; 168 h, nutrient-starved): 8 µM

Some of these lines once more:
CCC(CO)NCCNC(CC)CO.CCOc1cc(C=NNC(=S)Nc2cccc(Cl)c2)ccc1OC(=O)CN1C(=O)CSC1=O — FICI (two-drug checkerboard; H37Rv; concentration not given, unit not given; lower means more synergy): 2
CCCc1ccc(-c2cccc(-c3nc4ccc5cc(C(=O)O)cc(O)c5c4[nH]3)c2)cc1 — IC50 (resazurin; wild type; 168 h, nutrient-starved): 8 µM
